Results collected from several papers.
Every numbered part comes from another study and shows a few of its results, in no order. Substitutions count along the parent as printed.

Sample 1
Target: Interferon regulatory factor 3, full length, phosphomimetic (IRF3, Homo sapiens, UniProt Q14653, residues 1-427, S386D/S396D/S398D/S402D/T404D/S405D)
Technique: protein-binding microarray
Molecule type: double-stranded DNA, one strand shown
Matrix: in vitro
Concentration: 2540 nM top
Notes: 60-bp whole probe
With: salmon DNA 0.4 mg/ml
Reference: random background probes
Direction: higher = stronger binding
Shared flanks, not repeated: GCCTAGCAC … GTCTTGATTCGCTTGACGCTGCTG
Target sequence (chain): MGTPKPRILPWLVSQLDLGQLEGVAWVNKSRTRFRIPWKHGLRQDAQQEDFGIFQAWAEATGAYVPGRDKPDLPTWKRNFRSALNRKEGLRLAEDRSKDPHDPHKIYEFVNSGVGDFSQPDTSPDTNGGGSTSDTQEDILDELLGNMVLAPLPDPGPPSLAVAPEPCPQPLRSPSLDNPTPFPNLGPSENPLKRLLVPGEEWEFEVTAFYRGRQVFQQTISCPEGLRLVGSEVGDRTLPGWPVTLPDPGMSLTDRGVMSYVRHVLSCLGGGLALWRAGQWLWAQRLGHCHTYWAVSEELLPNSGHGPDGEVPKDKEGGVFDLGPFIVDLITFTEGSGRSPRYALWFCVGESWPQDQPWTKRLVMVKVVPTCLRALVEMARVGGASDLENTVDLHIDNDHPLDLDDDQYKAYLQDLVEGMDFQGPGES
For `TTAGGTCTCCTTCTCGTTTAGTGCTAG`, “fitted relative affinity” read 4.73 z-score.
`TGCTTTCTCTTTCACTGCTGGTGCTAG` — result for “fitted relative affinity”: 3.91 z-score.
Under “fitted relative affinity”, `TTAGATTTCAGATTGGATTAGTGCTAG` is recorded as 1.51 z-score.
`GACGGTATCCTTCGCCTGACGTGCTAG`: “fitted relative affinity” 1.28 z-score.
`TCACCTTTATATACCTGACTGTGCTAG`: “fitted relative affinity” 1.4 z-score.
`TTAGATTTCGGGACTGGATTGGTGCTA`: “fitted relative affinity” 1.24 z-score.
Under “fitted relative affinity”, `TTAGGTTCTGGTTTCGGTTAGTGCTAG` is recorded as 5.24 z-score.
Under “fitted relative affinity”, `GACGGTATCCTTTTCCGGACGTGCTAG` is recorded as 7.69 z-score.
Under “fitted relative affinity”, `TTAGGTATCGTGTTTCGGTTAGTGCTA` is recorded as 2.87 z-score.
`GACTGTTTCCTTTTCCTGACGTGCTAG`: “fitted relative affinity” 10.3 z-score.
For `TTAGATTTCAGTTTCGAGTAGTGCTAG`, “fitted relative affinity” read 4.22 z-score.
`TCTCCTACAGGTTCTCTGAGAGTGCTA` — result for “fitted relative affinity”: 0.37 z-score.
For `TTAGGTCTCGGTTGCGGTTAGTGCTAG`, “fitted relative affinity” read 1.09 z-score.
Under “fitted relative affinity”, `AACGGACTGCTTTTCCTGACGTGCTAG` is recorded as 0.091 z-score.
For `TCAGTTTTCAATTTTTGACTGTGCTAG`, “fitted relative affinity” read 2.87 z-score.
`GACGACTTCGGGTTTCGAGACGTGCTA` — result for “fitted relative affinity”: 0.524 z-score.
`TCACCTTTGCTTTCCTGACTGTGCTAG`: “fitted relative affinity” 1.56 z-score.
For `TTAGGTTTCGATACTGGGTTAGTGCTA`, “fitted relative affinity” read 6.37 z-score.
`GGCGAACTGAGTCTCGAGACGTGCTAG` — result for “fitted relative affinity”: -0.576 z-score.
`TGGGCTACCTCTCTTAGAATGTGCTAG` — result for “fitted relative affinity”: -0.445 z-score.
Under “fitted relative affinity”, `TTAGGTTTCCTTTTACTTTAGTGCTAG` is recorded as 10.3 z-score.
`GACGGTTTCCTTTTCGTGACGTGCTAG` — result for “fitted relative affinity”: 11.3 z-score.
Under “fitted relative affinity”, `TCATGCCTGTTTTTCCCACTGTGCTAG` is recorded as 0.369 z-score.
For `GACGGTCTCGGTATCGTGACGTGCTAG`, “fitted relative affinity” read 1.35 z-score.
Under “fitted relative affinity”, `TTAGGTTTCGATTTTCGGTTAGTGCTA` is recorded as 7.49 z-score.

Sample 2
Target: FOSB, bZIP domain (human)
Technique: DHFR protein complementation
Matrix: yeast
Notes: single substitutions, most at no-binding floor
Reference: wild-type JUN-FOS pair
Direction: higher = stronger binding
Starting sequence: JUN, bZIP domain (human); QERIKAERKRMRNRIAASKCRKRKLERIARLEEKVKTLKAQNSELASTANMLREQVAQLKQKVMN; partner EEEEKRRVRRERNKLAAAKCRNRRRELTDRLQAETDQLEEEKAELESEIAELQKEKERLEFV
`R30C` has a binding fitness of -0.032 natural log.
The binding fitness of `R53T` is reported as -0.889 natural log.
With `K36S` the binding fitness was -0.0797 natural log.
For `S47G`, the binding fitness was -0.102 natural log.
`A40R` has a binding fitness of -0.056 natural log.
`K36G` has a binding fitness of -0.218 natural log.
With `L31R` the binding fitness was -0.777 natural log.
The binding fitness of `T48G` is reported as -0.974 natural log.
The binding fitness of `A57Y` is reported as -0.353 natural log.
For `E33F`, the binding fitness was -0.42 natural log.
The binding fitness of `S47C` is reported as -0.108 natural log.
`L45R` gave a binding fitness of -0.64 natural log.
For `S47L`, the binding fitness was -0.0798 natural log.
`A29S` has a binding fitness of -0.124 natural log.
`L59T` has a binding fitness of -0.68 natural log.

Sample 3
Target: ABI1, truncated, D143A, DHFR fusion (Arabidopsis thaliana)
Technique: DHFR PCA, deep sequencing
Matrix: yeast
Notes: methotrexate growth selection, single substitutions
With: (+)-ABA 0.39 µM
Reference: wild-type fitted maximum
Direction: higher = stronger binding
Starting sequence: PYL1, truncated, DHFR fusion (Arabidopsis thaliana); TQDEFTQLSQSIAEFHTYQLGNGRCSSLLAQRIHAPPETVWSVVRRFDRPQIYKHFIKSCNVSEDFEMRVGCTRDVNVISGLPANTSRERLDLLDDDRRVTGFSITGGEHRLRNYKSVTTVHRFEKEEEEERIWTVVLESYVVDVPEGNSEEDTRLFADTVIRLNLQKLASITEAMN; partner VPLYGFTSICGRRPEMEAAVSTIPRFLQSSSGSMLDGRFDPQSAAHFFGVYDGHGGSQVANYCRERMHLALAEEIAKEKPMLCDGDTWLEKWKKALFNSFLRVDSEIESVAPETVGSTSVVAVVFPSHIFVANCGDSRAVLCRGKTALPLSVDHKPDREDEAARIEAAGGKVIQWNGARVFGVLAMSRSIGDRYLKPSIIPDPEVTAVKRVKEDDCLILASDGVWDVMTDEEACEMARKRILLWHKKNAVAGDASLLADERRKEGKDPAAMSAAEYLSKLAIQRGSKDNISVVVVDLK
`E130S`: “relative binding score” 69.4%.
`L156Y` — result for “relative binding score”: -12.2%.
For `S150L`, “relative binding score” read 0.762%.
`L28G` — result for “relative binding score”: -3.56%.
For `G81M`, “relative binding score” read 8.82%.
Under “relative binding score”, `V62H` is recorded as 3.27%.
`R88A`: “relative binding score” 12.6%.
For `T101Q`, “relative binding score” read -10.6%.
`F5M`: “relative binding score” 55.7%.
Under “relative binding score”, `D97Q` is recorded as 51.8%.
`T73P` — result for “relative binding score”: -5.96%.
For `E151D`, “relative binding score” read 15%.
For `R46Y`, “relative binding score” read -33.2%.
`A13K`: “relative binding score” 56.4%.
For `Y18R`, “relative binding score” read -4.28%.
For `I133C`, “relative binding score” read 60.2%.
`D75N` — result for “relative binding score”: 46.7%.
Under “relative binding score”, `Q51W` is recorded as -11.3%.
`D144R`: “relative binding score” -14.9%.
`T160M`: “relative binding score” 14.4%.

Sample 4
Target: Centromere-binding protein 1, full length, His-tagged (CBF1, Saccharomyces cerevisiae, UniProt P17106, residues 1-351)
Sequence of UniProt P17106 (whole entry, looked up): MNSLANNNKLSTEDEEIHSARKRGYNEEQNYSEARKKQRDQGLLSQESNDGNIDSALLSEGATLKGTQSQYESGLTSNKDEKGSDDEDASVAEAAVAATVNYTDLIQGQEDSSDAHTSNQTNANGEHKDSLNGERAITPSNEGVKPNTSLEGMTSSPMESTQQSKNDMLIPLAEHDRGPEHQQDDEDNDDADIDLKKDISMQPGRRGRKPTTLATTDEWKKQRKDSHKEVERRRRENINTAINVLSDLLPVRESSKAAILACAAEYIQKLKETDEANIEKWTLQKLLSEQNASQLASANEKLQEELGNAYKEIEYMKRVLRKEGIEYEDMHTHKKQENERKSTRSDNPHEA
Technique: competition protein-binding microarray
Molecule type: double-stranded DNA, one strand shown
Matrix: in vitro
Concentration: 2 µM
Notes: whole 60-bp probe, lowest competitor level
With: Pho4 competitor, 0.05 µM
Direction: higher = stronger binding
`TGTTACTCTAAAGGACACGGGAGAAAAGGTCGCCCCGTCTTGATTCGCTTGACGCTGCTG` has a fluorescence intensity of 78.2 a.u.
`ACACCCGTACACCACCATGTGCGTTATTGAAAAACTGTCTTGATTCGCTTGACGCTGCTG` gave a fluorescence intensity of 101 a.u.
`CAACCAGTTGCGCAGGGCGTGCCAGATGAACGCTCTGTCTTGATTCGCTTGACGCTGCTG` gave a fluorescence intensity of 72.7 a.u.
`CGCGCCACTGCTACTCATGTGCTGCAAACTAACAGTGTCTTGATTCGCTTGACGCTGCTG` has a fluorescence intensity of 93.2 a.u.
For `CGTCCTAGCGATTGAGGTGTGGGTGCCATGAGGAAGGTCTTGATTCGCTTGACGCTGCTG`, the fluorescence intensity was 82.8 a.u.
`TTGACAGTCCCTGGACATGTGGCCAGCTTTACCACAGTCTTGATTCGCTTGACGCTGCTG` gave a fluorescence intensity of 114 a.u.
The fluorescence intensity of `GAAATATGTTGGGAGCACATGTTCGACCCATTACATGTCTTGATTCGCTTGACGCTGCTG` is reported as 186 a.u.
The fluorescence intensity of `CATACCCAACCTTGGGCGGTGGGTGAAGATATTTGTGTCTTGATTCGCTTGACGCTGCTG` is reported as 73.6 a.u.
For `ACCGCAGCACCGTTTCACATGTCCGTCTCTTTTGTTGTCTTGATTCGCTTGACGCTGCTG`, the fluorescence intensity was 96 a.u.
`CGGGGTTAAGTTTGTCACCCTACTTGCTTGCAGCAGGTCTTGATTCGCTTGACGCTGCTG` has a fluorescence intensity of 75.1 a.u.
For `GAGGAGACACACCGTCACGTGTTTTGCCATTTTGTAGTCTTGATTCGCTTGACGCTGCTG`, the fluorescence intensity was 3520 a.u.
For `CGTCCTAGTGATTTTCACGTGATTTCCATGAGGAAGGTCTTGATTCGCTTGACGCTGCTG`, the fluorescence intensity was 4790 a.u.
`TGTGCAGACTTCCATCACGTGAACCACAGTAACCTAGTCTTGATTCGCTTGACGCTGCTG` gave a fluorescence intensity of 4030 a.u.
`ATATTGATGGATTGTCATGTGATAGATAATTTCGTTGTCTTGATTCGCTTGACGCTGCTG` has a fluorescence intensity of 2190 a.u.
`AGTGTTTCAAGCCATCACGTCGACTAACGACAAAGTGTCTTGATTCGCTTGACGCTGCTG` gave a fluorescence intensity of 112 a.u.
`CGGGGTTAAGTTTGCCATGTGGGTGGCTTGCAGCAGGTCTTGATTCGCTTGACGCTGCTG` has a fluorescence intensity of 73.5 a.u.
The fluorescence intensity of `AAATTACTAAGTTGTCACGATACTTACCCCGTATGAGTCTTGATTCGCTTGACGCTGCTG` is reported as 250 a.u.
`GTCTTGTCTCATTGGTAGGTGGGTGTCCCCACTTCAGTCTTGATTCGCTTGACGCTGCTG` gave a fluorescence intensity of 69 a.u.
`AGGTCTTTGCGTAGGATTGTATAAGCCCGGCCATTGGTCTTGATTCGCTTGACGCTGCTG` has a fluorescence intensity of 55.5 a.u.
`CTAACGAAGGTTTGTCACGAGACTTACAAGCCAAGTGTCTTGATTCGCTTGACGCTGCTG` gave a fluorescence intensity of 852 a.u.
For `AGAAGCTAAGACACTGTTCTCTTGACTAAATGAAAGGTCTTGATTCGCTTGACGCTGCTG`, the fluorescence intensity was 59.8 a.u.
With `CGGGGTTAAGTTTGGTGGGTGGGTGGCTTGCAGCAGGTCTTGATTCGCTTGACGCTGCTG` the fluorescence intensity was 72.3 a.u.

Sample 5
Target: CCND2, cyclin fold, Cln2 fusion (human)
Technique: yeast growth competition, sequencing
Matrix: yeast
Notes: weak parent motif
Reference: not given
Direction: higher = stronger binding
Starting sequence: ORC1 docking peptide (human); PRARKRLELGNLG
Under “normalised enrichment score”, `R4A` is recorded as 0.114.
`P1W` — result for “normalised enrichment score”: 0.0292.
Under “normalised enrichment score”, `L12I` is recorded as 0.0693.
Under “normalised enrichment score”, `L7I` is recorded as 0.279.
`L7C` — result for “normalised enrichment score”: -0.049.
For `L12M`, “normalised enrichment score” read 0.534.
Under “normalised enrichment score”, `G10D` is recorded as 0.365.
Under “normalised enrichment score”, `R6M` is recorded as 0.115.
`R4G` — result for “normalised enrichment score”: 0.19.
`K5A`: “normalised enrichment score” 0.0124.
`K5P` — result for “normalised enrichment score”: 0.655.
`G10R` — result for “normalised enrichment score”: 0.129.
`K5M`: “normalised enrichment score” -0.0384.
Under “normalised enrichment score”, `E8P` is recorded as -0.189.
`G10H` — result for “normalised enrichment score”: 0.0747.
For `R2H`, “normalised enrichment score” read 0.0624.
`L7Y`: “normalised enrichment score” 0.15.
`G13K` — result for “normalised enrichment score”: -0.00739.
`E8R`: “normalised enrichment score” 0.191.
Under “normalised enrichment score”, `E8Q` is recorded as 0.302.
For `L12T`, “normalised enrichment score” read 0.206.
For `A3C`, “normalised enrichment score” read 0.332.
`R6L` — result for “normalised enrichment score”: 0.404.
For `R4D`, “normalised enrichment score” read 0.0733.
`N11D` — result for “normalised enrichment score”: 0.109.
